Measured values from different studies.
Lines come from different studies, so protocols differ. “And” joins repeats or separate records; there may be more than shown. Numbers after ± are the reported error.
Chain of UniProt Q9Y6L6 (whole entry, looked up): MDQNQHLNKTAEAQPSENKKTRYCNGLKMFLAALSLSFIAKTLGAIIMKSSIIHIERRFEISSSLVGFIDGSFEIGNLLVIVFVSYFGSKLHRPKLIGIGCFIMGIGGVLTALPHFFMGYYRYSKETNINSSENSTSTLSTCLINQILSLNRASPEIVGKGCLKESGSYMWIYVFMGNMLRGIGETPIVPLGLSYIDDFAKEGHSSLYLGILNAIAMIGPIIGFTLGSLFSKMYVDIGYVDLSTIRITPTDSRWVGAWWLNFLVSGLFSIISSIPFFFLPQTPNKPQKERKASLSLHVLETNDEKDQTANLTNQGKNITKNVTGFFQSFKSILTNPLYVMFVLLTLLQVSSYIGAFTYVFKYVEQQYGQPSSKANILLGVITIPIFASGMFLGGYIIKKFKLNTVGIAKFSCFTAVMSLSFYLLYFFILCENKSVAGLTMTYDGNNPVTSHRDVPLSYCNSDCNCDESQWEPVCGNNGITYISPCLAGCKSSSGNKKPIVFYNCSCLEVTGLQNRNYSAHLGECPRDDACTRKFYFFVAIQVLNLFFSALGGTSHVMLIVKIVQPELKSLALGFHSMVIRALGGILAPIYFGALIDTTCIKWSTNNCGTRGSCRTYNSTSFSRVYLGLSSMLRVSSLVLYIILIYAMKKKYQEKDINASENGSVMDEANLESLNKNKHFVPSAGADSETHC
Chain of UniProt Q12809 (whole entry, looked up): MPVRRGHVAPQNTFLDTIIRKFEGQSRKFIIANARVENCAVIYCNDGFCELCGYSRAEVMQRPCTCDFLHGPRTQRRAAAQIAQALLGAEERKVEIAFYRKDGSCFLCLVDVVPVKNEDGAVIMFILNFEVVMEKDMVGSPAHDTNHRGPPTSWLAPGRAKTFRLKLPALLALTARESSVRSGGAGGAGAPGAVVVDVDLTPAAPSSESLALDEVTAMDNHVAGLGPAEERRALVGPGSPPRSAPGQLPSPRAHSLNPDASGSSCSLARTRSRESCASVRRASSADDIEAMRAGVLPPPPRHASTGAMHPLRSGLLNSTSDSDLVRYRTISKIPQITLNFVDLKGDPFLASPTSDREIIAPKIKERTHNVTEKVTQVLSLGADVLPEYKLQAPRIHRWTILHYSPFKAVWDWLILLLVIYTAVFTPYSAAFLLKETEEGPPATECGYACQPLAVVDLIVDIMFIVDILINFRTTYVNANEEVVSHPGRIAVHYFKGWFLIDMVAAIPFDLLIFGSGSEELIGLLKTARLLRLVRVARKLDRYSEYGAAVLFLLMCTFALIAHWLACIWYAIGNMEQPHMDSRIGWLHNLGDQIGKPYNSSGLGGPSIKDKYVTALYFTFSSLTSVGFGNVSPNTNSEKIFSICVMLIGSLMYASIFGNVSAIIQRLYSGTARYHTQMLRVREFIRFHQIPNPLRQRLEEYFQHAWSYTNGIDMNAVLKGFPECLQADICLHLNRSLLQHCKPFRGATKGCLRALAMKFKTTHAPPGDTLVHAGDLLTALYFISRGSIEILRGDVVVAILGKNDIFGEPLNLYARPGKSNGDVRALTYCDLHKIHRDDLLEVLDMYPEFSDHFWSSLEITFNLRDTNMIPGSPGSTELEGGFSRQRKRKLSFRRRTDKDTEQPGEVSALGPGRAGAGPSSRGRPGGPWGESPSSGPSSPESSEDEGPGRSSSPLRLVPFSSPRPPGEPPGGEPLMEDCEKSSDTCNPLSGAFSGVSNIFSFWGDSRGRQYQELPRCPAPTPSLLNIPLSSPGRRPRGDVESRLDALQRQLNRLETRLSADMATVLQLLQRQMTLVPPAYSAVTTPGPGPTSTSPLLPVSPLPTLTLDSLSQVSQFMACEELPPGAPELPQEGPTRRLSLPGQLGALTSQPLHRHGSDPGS
Chain of UniProt P61073 (whole entry, looked up): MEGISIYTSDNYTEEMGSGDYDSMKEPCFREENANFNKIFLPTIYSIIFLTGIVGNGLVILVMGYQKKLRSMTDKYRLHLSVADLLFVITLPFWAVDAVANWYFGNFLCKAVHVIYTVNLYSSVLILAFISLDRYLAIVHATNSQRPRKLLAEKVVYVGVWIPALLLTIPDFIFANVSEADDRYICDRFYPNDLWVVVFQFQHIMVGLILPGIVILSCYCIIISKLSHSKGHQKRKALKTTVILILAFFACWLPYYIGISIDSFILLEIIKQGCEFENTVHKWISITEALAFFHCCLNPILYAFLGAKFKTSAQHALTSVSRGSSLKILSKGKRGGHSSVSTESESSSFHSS

CC[C@H](C)[C@H](NC(=O)[C@H](CCC(=O)O)NC(=O)CNC(=O)[C@@H](NC(=O)[C@H](CC(C)C)NC(=O)[C@H](CC(C)C)NC(=O)[C@H](CC(C)C)NC(=O)[C@H](CC(C)C)NC(=O)[C@H](CS)NC(=O)[C@H](CO)NC(=O)[C@H](Cc1ccccc1)NC(=O)CNC(=O)[C@H](CCCNC(=N)N)NC(=O)[C@@H]1CCCN1C(=O)[C@H](C)NC(=O)[C@H](CCSC)NC(=O)CNC(=O)CNC(=O)[C@H](Cc1ccccc1)NC(=O)[C@H](CCCCN)NC(=O)[C@H](Cc1c(C)cc(O)cc1C)NC(=O)[C@H](N)CCCNC(=N)N)[C@@H](C)O)C(=O)N[C@@H](CC(=O)O)C(=O)N[C@@H](CC(C)C)C(=O)N1CCC[C@H]1C(=O)N[C@H](C(=O)N[C@@H](CCCCN)C(=O)N[C@@H](CCCNC(=N)N)C(=O)N[C@@H](CCCNC(=N)N)C(=O)N[C@@H](C)C(N)=O)C(C)C
cellular uptake (bEnd.3; 10 µM, 2 h, FITC-labelled; relative to: SS-31): 4.2 fold

CCCCCc1cc(O)c2c(c1)OC(C)(C)C1CCC(C)=CC21 (single isomer, unassigned; (-))
unbound fraction (human liver microsome incubation mixture): 0.048 ± 0.002

O=C(O)CCC(NP(=O)(O)OCCC[C@@H](NC(=O)CCC(NC(=O)CCCCCNC(=O)c1ccc([18F])cc1)C(=O)O)C(=O)O)C(=O)O (stereo partly drawn)
tracer uptake (PC-3 tumour model; host not given, liver; intravenous, 2 h, tumour-bearing): 0.28 %ID/g

Oc1ccc(Nc2ccnc3cc(Cl)ccc23)cc1
CC50 (BHK-21 DENV2 replicon cells; 24 h): > 100 µM

Nc1nc2c([C@@H]3O[C@@H]4COP(=O)(O)O[C@H]5[C@@H](O)[C@H](c6scc7c(=O)[nH]c(N)nc67)O[C@@H]5COP(=O)(O)O[C@H]4[C@H]3O)scc2c(=O)[nH]1
relative emission quantum yield (relative to: parent monomeric nucleoside): ~17%

N[C@]1(c2ccccc2Cl)CCC[C@H](O)C1=O
brain to plasma ratio (Wistar rat; intravenous, 20 mg/kg, 20 min): 3.5

COc1cccc(C2(O)CCCCC2CN(C)C)c1.Cc1ccc(-c2cc(C(F)(F)F)nn2-c2ccc(S(N)(=O)=O)cc2)cc1.Cl (racemic)
subjects with treatment-related adverse events (healthy human, fasted; oral, dose not given): 35.3%

CC[C@H](C)C(=O)N1CCC(NC(=O)Nc2ccc(OC(F)(F)F)c(F)c2)CC1
half-life (human, plasma; oral, single dose, healthy volunteers): ~62.4 h

O=C(O)CCC(NP(=O)(O)OCCC[C@@H](NC(=O)CCC(NC(=O)CCCCCNC(=O)CCCCCNC(=O)c1ccc([18F])cc1)C(=O)O)C(=O)O)C(=O)O (stereo partly drawn)
tracer uptake (PC-3 tumour model; host not given, liver; intravenous, 2 h, tumour-bearing): 0.25 %ID/g

Cc1nc(=O)c2cc(CN(C)c3ccc(C(=O)NCc4cccc(C(=O)O)c4)s3)ccc2[nH]1
parent recovered from bacteria (Mycobacterium tuberculosis; H37Rv; 10 µM, 24 h; relative to: amount consumed): 14 ± 3%

N=C(N)c1ccc(-c2ccc(-c3ccco3)o2)nc1
revertant colonies (Salmonella typhimurium; mutagenicity, Ames test; TA1535; 5 or 10 µM, 48 h, pH 7.4, lower tested concentration, with: rat liver S9 mix): 14.3 ± 2.1 colonies/plate

COc1ccc(CNc2nc(N3CCC[C@H]3CO)ncc2C(=O)NN)cc1Cl
revertant count (Salmonella typhimurium; TA97a; 125 µg/plate, 48 h): 144 ± 12

CN(C)CC1CCCCC1(O)c1cccc(O)c1 (stereo not drawn)
Papp B→A (Caco-2; 50 µM, 3 h, pH 7.4): 17.4 ×10⁻⁶ cm/s

O=C(O)CC1C2CCCN3CCCC(CN1CCc1cc(Cl)cc(Cl)c1)C23 (stereo not drawn)
CC50 (HEK293T): 83.3 µM

C[C@@](O)(C(F)F)[C@H](NC(=O)c1ccc(C#CC#CC2CC2)cc1)C(=O)NO
clearance (mouse, plasma; intravenous, 40 mg/kg): 26.9 mL/min/kg

CN[C@](C)(C[18F])C(=O)O
tracer uptake (A549 tumour model; host not given, blood; 1 h, tumour-bearing): 0.8 %ID/g

COc1cc(C(=O)NCCOCCOCCOCCNC(=O)c2ccc([18F])nc2)ccc1NC(=O)C1NC(CC(C)(C)C)C(C#N)(c2ccc(Cl)cc2F)C1c1cccc(Cl)c1F (stereo not drawn)
tracer uptake (SJSA-1 tumour model; host not given, blood; 2 h, tumour-bearing): 0.57 %ID/g

CC[C@H](C)[C@H](NC(=O)[C@H](CC(=O)O)NC(=O)[C@@H](NC(=O)[C@@H]1CCCN1C(=O)[C@@H](N)CCCNC(=N)N)[C@@H](C)O)C(=O)N[C@@H](CCCCN)C(=O)N[C@H]1CSSC[C@@H]2NC(=O)[C@H](CCCNC(=N)N)NC(=O)CNC(=O)[C@H](CC(N)=O)NC(=O)[C@H]([C@@H](C)O)NC(=O)[C@H](CCCCN)NC(=O)CNC(=O)[C@H](Cc3ccccc3)NC(=O)[C@H](CCCNC(=N)N)NC(=O)[C@H](CO)NC(=O)[C@H](CCCCN)NC(=O)[C@@H]3CSSC[C@@H](C(=O)N[C@@H](Cc4ccccc4)C(=O)O)NC(=O)[C@H](CC(=O)O)NC(=O)[C@H](CSSC[C@H](NC(=O)[C@H](CCC(N)=O)NC(=O)[C@H](Cc4ccc(O)cc4)NC(=O)[C@H](CO)NC(=O)[C@H](CCC(=O)O)NC(=O)[C@H](CO)NC1=O)C(=O)N[C@@H](Cc1ccccc1)C(=O)N1CCC[C@H]1C(=O)N[C@@H](C(C)C)C(=O)N3)NC(=O)[C@H](Cc1ccccc1)NC(=O)CNC(=O)[C@H](CC(N)=O)NC(=O)[C@H](C(C)C)NC2=O
Hill coefficient (Voltage-gated inwardly rectifying potassium channel KCNH2 (KCNH2, Homo sapiens, UniProt Q12809); ion current, two-electrode voltage clamp; Xenopus laevis oocytes): 0.9 ± 0.1

CN1C(=O)[C@@H](Cc2ccc(O)cc2)NC(=O)CNC(=O)[C@H](Cc2ccc3ccccc3c2)NC(=O)[C@H](CCCNC(=N)N)NC(=O)[C@H]1CCCNC(=O)c1ccc(CNC(=O)CN2CCN(CC(=O)O)CCN(CC(=O)O)CCN(CC(=O)O)CC2)cc1 [gallium-68 labelled]
SUVmax (C-X-C chemokine receptor type 4 (CXCR4, Homo sapiens, UniProt P61073); PET imaging; human, bladder): 71

O=C(O)CCC(NP(=O)(O)OCCC[C@@H](NC(=O)CCC(NC(=O)c1ccc([18F])cc1)C(=O)O)C(=O)O)C(=O)O (stereo partly drawn)
tracer uptake (CWR22Rv1 tumour model; host not given, lung; intravenous, 1 h, tumour-bearing): 0.65 %ID/g

CC(CCC(=O)NCC(=O)O)C1CCC2C3C(O)CC4CC(OC5OC(C(=O)O)C(O)C(O)C5O)CCC4(C)C3CCC12C (stereo not drawn)
IC50 (Solute carrier organic anion transporter family member 1B1 (SLCO1B1, Homo sapiens, UniProt Q9Y6L6); transporter uptake, inhibitor): 16 µM and ≤ 28 µM

CCC(=O)N(C)c1ccc(Cl)c(Cl)c1
revertants (Salmonella typhimurium; Ames test; TA1535; 0.05 mg/plate, with rat liver S9): 16 ± 3.5 revertants/plate

COc1ccc(CNc2nc(N3CCC[C@H]3CO)ncc2C(=O)NNC(=O)c2cnc(N3CCC[C@H]3CO)nc2NCc2ccc(OC)c(Cl)c2)cc1Cl
revertant count (Salmonella typhimurium; TA102; 250 µg/plate, with: rat liver S9): 226 ± 14

O=C(O)CCCC1C2CCCN3CCCC(CN1Cc1ccc(Cl)c(Cl)c1)C23 (stereo not drawn)
CC50 (HEK293T): 200 µM

For quick reference, copied from above:
CC[C@H](C)[C@H](NC(=O)[C@H](CCC(=O)O)NC(=O)CNC(=O)[C@@H](NC(=O)[C@H](CC(C)C)NC(=O)[C@H](CC(C)C)NC(=O)[C@H](CC(C)C)NC(=O)[C@H](CC(C)C)NC(=O)[C@H](CS)NC(=O)[C@H](CO)NC(=O)[C@H](Cc1ccccc1)NC(=O)CNC(=O)[C@H](CCCNC(=N)N)NC(=O)[C@@H]1CCCN1C(=O)[C@H](C)NC(=O)[C@H](CCSC)NC(=O)CNC(=O)CNC(=O)[C@H](Cc1ccccc1)NC(=O)[C@H](CCCCN)NC(=O)[C@H](Cc1c(C)cc(O)cc1C)NC(=O)[C@H](N)CCCNC(=N)N)[C@@H](C)O)C(=O)N[C@@H](CC(=O)O)C(=O)N[C@@H](CC(C)C)C(=O)N1CCC[C@H]1C(=O)N[C@H](C(=O)N[C@@H](CCCCN)C(=O)N[C@@H](CCCNC(=N)N)C(=O)N[C@@H](CCCNC(=N)N)C(=O)N[C@@H](C)C(N)=O)C(C)C
cellular uptake (bEnd.3; 10 µM, 2 h, FITC-labelled; relative to: SS-31): 4.2 fold

Cc1nc(=O)c2cc(CN(C)c3ccc(C(=O)NCc4cccc(C(=O)O)c4)s3)ccc2[nH]1
parent recovered from bacteria (Mycobacterium tuberculosis; H37Rv; 10 µM, 24 h; relative to: amount consumed): 14 ± 3%

CN1C(=O)[C@@H](Cc2ccc(O)cc2)NC(=O)CNC(=O)[C@H](Cc2ccc3ccccc3c2)NC(=O)[C@H](CCCNC(=N)N)NC(=O)[C@H]1CCCNC(=O)c1ccc(CNC(=O)CN2CCN(CC(=O)O)CCN(CC(=O)O)CCN(CC(=O)O)CC2)cc1 [gallium-68 labelled]
SUVmax (C-X-C chemokine receptor type 4 (CXCR4, Homo sapiens, UniProt P61073); PET imaging; human, bladder): 71
